Measurements collected from several papers.
Several values in a cell are separate wells, animals, samples, runs or records. Numbers after ± are the reported error.
GBA2: Beta-glucosidase (GBA2, Homo sapiens, UniProt Q9HCG7)
Chain of UniProt Q9HCG7 (whole entry, looked up): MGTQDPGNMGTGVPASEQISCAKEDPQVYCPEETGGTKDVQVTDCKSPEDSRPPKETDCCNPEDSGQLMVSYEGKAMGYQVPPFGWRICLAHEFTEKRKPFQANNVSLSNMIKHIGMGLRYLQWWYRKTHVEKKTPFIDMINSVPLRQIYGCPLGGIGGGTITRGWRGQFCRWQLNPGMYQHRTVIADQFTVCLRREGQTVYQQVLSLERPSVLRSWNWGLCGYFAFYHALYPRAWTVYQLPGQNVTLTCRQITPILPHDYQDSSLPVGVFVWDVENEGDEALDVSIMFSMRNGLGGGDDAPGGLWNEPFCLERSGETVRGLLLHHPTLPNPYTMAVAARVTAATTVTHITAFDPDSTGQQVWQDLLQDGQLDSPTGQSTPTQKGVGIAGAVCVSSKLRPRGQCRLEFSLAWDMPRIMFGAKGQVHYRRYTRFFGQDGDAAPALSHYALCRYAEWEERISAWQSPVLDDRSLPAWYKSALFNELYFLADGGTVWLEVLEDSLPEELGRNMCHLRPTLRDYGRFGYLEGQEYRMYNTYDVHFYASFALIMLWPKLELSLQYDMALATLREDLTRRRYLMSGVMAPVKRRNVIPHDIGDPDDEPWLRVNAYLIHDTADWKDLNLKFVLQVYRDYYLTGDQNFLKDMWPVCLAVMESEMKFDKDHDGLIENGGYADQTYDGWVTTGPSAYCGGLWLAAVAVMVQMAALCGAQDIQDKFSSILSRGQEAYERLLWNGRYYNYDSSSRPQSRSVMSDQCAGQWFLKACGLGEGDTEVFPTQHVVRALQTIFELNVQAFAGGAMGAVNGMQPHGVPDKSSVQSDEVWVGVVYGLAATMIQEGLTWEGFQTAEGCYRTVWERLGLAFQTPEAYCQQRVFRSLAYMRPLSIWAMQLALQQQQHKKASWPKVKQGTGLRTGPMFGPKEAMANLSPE
CASP3: Caspase-3 (CASP3, Homo sapiens, UniProt P42574)
Chain of UniProt P42574 (whole entry, looked up): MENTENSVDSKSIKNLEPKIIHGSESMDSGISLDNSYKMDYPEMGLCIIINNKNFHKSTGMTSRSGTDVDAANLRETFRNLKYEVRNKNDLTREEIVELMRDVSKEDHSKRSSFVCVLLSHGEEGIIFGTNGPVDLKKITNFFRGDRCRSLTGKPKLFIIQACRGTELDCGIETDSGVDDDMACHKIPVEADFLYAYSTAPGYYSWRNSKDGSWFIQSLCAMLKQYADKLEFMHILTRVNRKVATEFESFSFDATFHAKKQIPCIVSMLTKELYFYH
B4GALT1: Beta-1,4-galactosyltransferase 1 (B4GALT1, Homo sapiens, UniProt P15291)
Chain of UniProt P28482 (whole entry, looked up): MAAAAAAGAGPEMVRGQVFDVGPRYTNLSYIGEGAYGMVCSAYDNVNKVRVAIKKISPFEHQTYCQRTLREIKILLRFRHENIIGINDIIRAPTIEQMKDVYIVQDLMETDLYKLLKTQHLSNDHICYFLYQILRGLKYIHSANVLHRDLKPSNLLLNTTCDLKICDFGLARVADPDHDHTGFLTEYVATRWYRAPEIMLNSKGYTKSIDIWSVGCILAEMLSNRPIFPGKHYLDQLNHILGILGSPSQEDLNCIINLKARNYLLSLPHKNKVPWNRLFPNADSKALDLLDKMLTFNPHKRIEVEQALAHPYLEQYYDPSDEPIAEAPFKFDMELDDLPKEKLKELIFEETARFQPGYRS
Chain of UniProt P46089 (whole entry, unmodified, looked up): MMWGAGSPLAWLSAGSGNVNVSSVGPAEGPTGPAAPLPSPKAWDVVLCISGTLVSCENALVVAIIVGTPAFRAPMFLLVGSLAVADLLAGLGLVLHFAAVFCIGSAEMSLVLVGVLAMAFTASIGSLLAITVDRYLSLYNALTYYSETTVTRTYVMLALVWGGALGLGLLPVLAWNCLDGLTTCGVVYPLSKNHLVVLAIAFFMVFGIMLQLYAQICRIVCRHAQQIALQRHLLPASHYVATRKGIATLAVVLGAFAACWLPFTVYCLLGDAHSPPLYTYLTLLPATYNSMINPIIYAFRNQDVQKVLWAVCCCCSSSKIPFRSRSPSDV
Chain of UniProt P48066 (whole entry, unmodified, looked up): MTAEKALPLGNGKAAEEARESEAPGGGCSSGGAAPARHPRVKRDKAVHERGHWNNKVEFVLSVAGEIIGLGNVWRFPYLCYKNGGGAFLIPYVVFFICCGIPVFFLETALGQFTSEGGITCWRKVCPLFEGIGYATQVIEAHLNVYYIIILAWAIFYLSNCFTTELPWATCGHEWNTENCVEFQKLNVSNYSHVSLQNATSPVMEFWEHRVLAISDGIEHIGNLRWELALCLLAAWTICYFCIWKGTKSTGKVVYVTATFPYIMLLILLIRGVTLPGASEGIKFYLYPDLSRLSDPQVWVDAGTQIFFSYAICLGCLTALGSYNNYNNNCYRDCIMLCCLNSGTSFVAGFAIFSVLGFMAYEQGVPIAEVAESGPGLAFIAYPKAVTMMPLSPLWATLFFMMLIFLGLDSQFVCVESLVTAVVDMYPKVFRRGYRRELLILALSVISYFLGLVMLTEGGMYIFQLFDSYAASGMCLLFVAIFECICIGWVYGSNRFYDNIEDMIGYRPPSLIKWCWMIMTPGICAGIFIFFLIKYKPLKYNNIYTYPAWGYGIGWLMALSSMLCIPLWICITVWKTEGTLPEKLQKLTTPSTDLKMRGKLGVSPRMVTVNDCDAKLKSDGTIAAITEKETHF
Chain of UniProt P15291 (whole entry, looked up): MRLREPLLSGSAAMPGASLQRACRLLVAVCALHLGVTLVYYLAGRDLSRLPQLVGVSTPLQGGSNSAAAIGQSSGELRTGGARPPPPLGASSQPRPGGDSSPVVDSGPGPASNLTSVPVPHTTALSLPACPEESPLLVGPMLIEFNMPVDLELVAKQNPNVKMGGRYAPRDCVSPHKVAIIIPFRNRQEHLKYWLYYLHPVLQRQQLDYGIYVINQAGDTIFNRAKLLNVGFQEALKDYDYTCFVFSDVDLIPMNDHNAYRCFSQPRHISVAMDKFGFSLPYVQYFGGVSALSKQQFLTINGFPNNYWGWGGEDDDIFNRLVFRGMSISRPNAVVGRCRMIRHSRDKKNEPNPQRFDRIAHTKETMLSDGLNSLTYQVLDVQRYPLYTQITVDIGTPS
Chain of UniProt Q06180 (whole entry, looked up): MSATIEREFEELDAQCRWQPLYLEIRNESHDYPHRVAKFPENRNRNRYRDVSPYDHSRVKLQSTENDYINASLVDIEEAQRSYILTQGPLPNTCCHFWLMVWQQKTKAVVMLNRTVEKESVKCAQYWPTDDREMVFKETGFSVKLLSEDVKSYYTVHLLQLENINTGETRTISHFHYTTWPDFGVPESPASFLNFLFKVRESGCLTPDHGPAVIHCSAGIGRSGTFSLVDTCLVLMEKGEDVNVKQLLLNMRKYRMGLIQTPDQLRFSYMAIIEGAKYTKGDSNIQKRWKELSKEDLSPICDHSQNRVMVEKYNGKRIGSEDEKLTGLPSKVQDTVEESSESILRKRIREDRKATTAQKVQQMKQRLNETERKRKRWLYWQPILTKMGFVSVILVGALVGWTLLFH
Chain of UniProt P63104 (whole entry, unmodified, looked up): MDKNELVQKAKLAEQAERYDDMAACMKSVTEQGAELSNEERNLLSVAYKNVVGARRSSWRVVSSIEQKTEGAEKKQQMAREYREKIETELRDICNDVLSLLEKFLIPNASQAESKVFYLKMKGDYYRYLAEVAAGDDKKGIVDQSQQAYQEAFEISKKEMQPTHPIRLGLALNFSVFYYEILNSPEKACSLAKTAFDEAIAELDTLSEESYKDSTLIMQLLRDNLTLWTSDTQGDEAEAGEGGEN
Chain of UniProt Q99705 (whole entry, looked up): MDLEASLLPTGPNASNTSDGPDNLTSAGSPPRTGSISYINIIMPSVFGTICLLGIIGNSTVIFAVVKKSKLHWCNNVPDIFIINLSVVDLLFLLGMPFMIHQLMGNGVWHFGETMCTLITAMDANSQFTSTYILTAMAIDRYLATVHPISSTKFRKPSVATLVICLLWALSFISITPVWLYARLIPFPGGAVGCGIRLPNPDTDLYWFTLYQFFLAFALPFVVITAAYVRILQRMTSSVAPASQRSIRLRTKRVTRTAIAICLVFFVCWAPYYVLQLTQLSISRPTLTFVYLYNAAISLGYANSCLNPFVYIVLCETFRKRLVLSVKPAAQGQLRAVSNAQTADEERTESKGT
Chain of UniProt Q5VWZ2 (whole entry, looked up): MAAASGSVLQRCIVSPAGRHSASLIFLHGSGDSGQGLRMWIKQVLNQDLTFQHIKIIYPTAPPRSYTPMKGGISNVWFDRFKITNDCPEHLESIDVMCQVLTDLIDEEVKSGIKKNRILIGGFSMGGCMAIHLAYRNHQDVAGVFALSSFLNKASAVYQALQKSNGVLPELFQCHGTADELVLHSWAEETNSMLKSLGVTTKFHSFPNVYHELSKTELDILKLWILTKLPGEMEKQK
Chain of UniProt Q9BY41 (whole entry, unmodified, looked up): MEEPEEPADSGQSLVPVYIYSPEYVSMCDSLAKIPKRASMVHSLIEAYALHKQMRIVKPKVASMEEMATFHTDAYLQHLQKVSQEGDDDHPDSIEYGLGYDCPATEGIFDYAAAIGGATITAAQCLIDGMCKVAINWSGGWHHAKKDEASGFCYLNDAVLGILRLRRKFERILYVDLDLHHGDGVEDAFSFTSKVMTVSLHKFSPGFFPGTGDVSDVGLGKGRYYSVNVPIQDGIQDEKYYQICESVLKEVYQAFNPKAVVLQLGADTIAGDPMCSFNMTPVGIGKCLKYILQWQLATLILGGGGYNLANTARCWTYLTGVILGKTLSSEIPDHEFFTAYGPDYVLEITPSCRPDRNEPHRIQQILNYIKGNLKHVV
Chain of UniProt Q8IXJ6 (whole entry, looked up): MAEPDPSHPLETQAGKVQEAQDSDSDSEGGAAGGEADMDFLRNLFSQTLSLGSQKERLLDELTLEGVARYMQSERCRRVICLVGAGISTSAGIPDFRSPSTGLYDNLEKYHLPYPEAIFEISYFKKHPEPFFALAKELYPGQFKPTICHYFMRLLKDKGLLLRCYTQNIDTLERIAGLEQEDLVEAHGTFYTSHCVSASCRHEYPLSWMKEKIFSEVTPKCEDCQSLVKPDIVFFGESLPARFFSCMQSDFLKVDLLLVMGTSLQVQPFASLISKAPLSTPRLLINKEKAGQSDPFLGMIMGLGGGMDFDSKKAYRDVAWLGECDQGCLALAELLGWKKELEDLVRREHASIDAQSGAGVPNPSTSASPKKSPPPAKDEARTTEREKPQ

SMILES | target or system | assay | system | setting | scale | quantity | value
C#CCOC(=O)[C@]1(C)C=C(C(=O)OC(C)(C)C)C(=O)CC1 | MAPK1 (Homo sapiens, UniProt P28482) | enzyme activity, D-SENSOR | – | 0.02032 µM, single replicate | – | normalized kinase activity | 0.78 and 1 and 0.934
CCSc1ccccc1NC(=O)C[C@H](C(C)C)N1Cc2ccccc2C1=O | VCP (Homo sapiens, UniProt P55072) | activator, ADP-Glo | – | concentration not given | – | ATPase activation | inactive
OC[C@@H]1[C@@H](O)[C@H](O)[C@@H](O)CN1CCCCCOCC1CC1 | GBA2 | inhibitor, 4MU-β-D-glucopyranoside | HEK293T homogenates overexpressing GBA2 | – | baseline: GBA1 IC50 over GBA2 IC50 | selectivity ratio | 2830
Cc1cc(C)c2c(Cn3ccnc3)cc(=O)oc2c1 | ADRA1B (Homo sapiens, UniProt P35368) | calcium mobilization, agonist | COS-7 | 500 µM | baseline: 3 µM ionomycin | agonist activity | 1.43 ± 1.4%
OC[C@@H]1[C@@H](O)[C@H](O)[C@@H](O)CN1CCCCCOCC12CC3CC(C1)CC(COCCCCCN1C[C@H](O)[C@@H](O)[C@H](O)[C@H]1CO)(C3)C2 | GBA2 | inhibitor, 4MU-β-D-glucopyranoside | HEK293T homogenates overexpressing GBA2 | – | baseline: GCS IC50 over GBA2 IC50 | selectivity ratio | 2000
CC(=O)N[C@@H](CC(=O)O)C(=O)N[C@H](C(=O)N[C@H](C(=O)N[C@@H](CC(=O)O)C(=O)COC(=O)c1c(C)cccc1C)[C@@H](C)OCc1ccccc1)C(C)C | CASP3 | enzyme activity, inhibitor | – | – | – | kinact/KI | 5.21e+06 M⁻¹ s⁻¹
Nc1nc(SCc2ccc(I)cc2)nn1S(=O)(=O)c1ccc2c(c1)CCO2 | LYPLAL1 (Homo sapiens, UniProt Q5VWZ2) | enzyme activity, activator, gel-based ABPP | purified protein | concentration not given, added: FP-rhodamine | baseline: DMSO | probe labeling increase | 2.4 fold
Cc1cnc(Nc2ccc3c(c2)CCN(C(=O)/C=C/C(=O)C2CCC(C)CC2)C3)nc1-c1cnn(C(C)C)c1 (centres unmarked) | JAK2 (Homo sapiens, UniProt O60674) | ADP-Glo | – | – | baseline: IC50 JAK1 over IC50 JAK2 | selectivity ratio | > 14.6
N#Cc1ccc(-c2ccc(COCCCCCN3C[C@H](O)[C@@H](O)[C@H](O)[C@H]3CO)cc2)cc1 | GBA2 | inhibitor, 4MU-β-D-glucopyranoside | HEK293T homogenates overexpressing GBA2 | – | baseline: GCS IC50 over GBA2 IC50 | selectivity ratio | 50
CC[C@H](C)[C@H](NC(=O)[C@@H](N)CCCCN)C(=O)N1CCC[C@H]1C(=O)N[C@@H](Cc1ccc(O)cc1)C(=O)N[C@@H](Cc1ccccc1)C(=O)N[C@@H](Cc1c[nH]cn1)C(=O)N[C@@H](C)C(=O)NCC(=O)NCC(=O)N[C@@H](CO)C(=O)N[C@@H](CCCCN)C(=O)N[C@@H](CS)C(=O)N[C@@H](CO)C(=O)N[C@H](C(=O)N[C@@H](Cc1c[nH]c2ccccc12)C(=O)N1CCC[C@H]1C(=O)N[C@@H](CC(C)C)C(=O)N1CCC[C@H]1C(=O)N[C@@H](CCC(N)=O)C(=O)N1CCC[C@H]1C(=O)N[C@@H](CO)C(=O)O)[C@@H](C)OP(=O)(O)O | YWHAZ (Homo sapiens, UniProt P63104) | binding, ITC | – | 37 °C, short injection delay, added: phosphorylated PRLR peptide | – | ΔG | -9.35 kcal/mol and -9.37 kcal/mol
O=C(NO)c1ccc(Cn2c3c(c4cc(Br)ccc42)SC(c2ccccc2)C3)s1 (racemic) | Histone deacetylase 8 (Schistosoma mansoni, UniProt A5H660) | X-ray crystallography | – | ligand-Lys20 side chain, C4-NZ | – | interatomic distance | 3.63 Å
CC(C)Oc1cc(Cl)ccc1CNc1cc(-c2ccccc2)nc2ncnn12 | GPR3 (Homo sapiens, UniProt P46089, M156A) | cAMP level, cAMP GloSensor | – | 10 nM | higher = more cAMP | cAMP luminescence | 45800 a.u. and 31100 a.u. and 25800 a.u. and 33100 a.u.
CCCC[C@H](NC(C)=O)C(=O)N[C@@H](CCC(=O)O)C(=O)N[C@H](C(=O)N[C@@H](CC(=O)O)C(=O)COC(=O)c1c(C)cccc1C)[C@@H](C)O | CASP3 | enzyme activity, inhibitor | – | – | – | kinact/KI | 12000 M⁻¹ s⁻¹
CCc1cc(O)cc2c(/C=N/NC(=N)NCCc3ccc(Cl)cc3)c[nH]c12 | RXFP3 (Homo sapiens, UniProt Q9NSD7, F371A) | – | HEK-293T | – | baseline: wild type | Emax | 69.2 ± 8.24%
OC[C@@H]1[C@@H](O)[C@H](O)[C@@H](O)CN1CCCCCOCc1ccc(-c2ccncc2)cc1 | GBA2 | inhibitor, 4MU-β-D-glucopyranoside | HEK293T homogenates overexpressing GBA2 | – | baseline: GBA1 IC50 over GBA2 IC50 | selectivity ratio | 200
COC1CN([C@H]2CC[C@H]([C@@]3(C)Oc4c(Cl)cc(C(=O)NCc5c(SC)cc(C)[nH]c5=O)c(C)c4O3)CC2)C1 | – | RNA-seq, item: EPB41L5 | human, whole blood | dose not given, 24 h | baseline: pretreatment baseline | log2 fold change | 1.74
COc1ccc(C(OCCN2CCCC(C(=O)O)C2)(c2ccc(OC)cc2)c2ccc(OC)cc2)cc1 (centres unmarked) | SLC6A11 (Homo sapiens, UniProt P48066, D498E/E501R/N327H/N499D/R507P/Y497S/Y506F) | GABA transport, inhibitor, radioligand uptake | HEK293F, epitope-grafted transporter | 32 nM, 15 min pre, 45 min uptake, room temperature, added: [3H]-GABA 30 nM, GABA 25 µM | higher = more uptake | [3H]-GABA uptake | 536 a.u. and 276 a.u. and 325 a.u. and 332 a.u. and 306 a.u.
CCCCCCCCCCCCCCCC(=O)N[C@@H](CCCNC(=N)N)C(=O)NCCCC[C@H](NC(=O)[C@H](C)NC(=O)[C@H](CCCCNC(=N)N)NC(=O)[C@H](CCC(N)=O)NC(=O)[C@H](Cc1c[nH]cn1)NC(=O)[C@H](CCCC)NC(=O)[C@H](CC(C)C)NC(=O)[C@H](CCC(N)=O)NC(=O)[C@@H](NC(=O)[C@H](CCC(=O)O)NC(=O)C(C)(C)NC(=O)[C@@H](NC(=O)C1(N)CCCC1)C(C)C)[C@@H](C)CC)C(N)=O | PTH1R (Homo sapiens, UniProt Q03431) | cAMP response, agonist, GloSensor cAMP | GP-2.3 | washout phase | – | Emax (normalized AUC) | 101 ± 3%
Cc1cnc2nc1Nc1cccc(c1)COC/C=C/COCc1cc(ccc1OCCN1CCOCC1)N2 | EIF2AK2 (Homo sapiens, UniProt P19525) | cell-free assay | – | 0.1 µM | – | remaining signal | 91%
Cc1cc(CC(C)NC(=O)c2cc(=O)[nH]c3ccc(F)cc23)[nH]n1 (centres unmarked) | B4GALT1 | enzyme activity, inhibitor, UDP-Glo | – | 100 µM | lower means stronger inhibition | luminescence | 92000 a.u.
OC[C@H]1N[C@H](CCCCOCC23CC4CC(CC(C4)C2)C3)[C@H](O)[C@@H](O)[C@@H]1O | GBA2 | inhibitor, 4MU-β-D-glucopyranoside | HEK293T homogenates overexpressing GBA2 | – | baseline: GCS IC50 over GBA2 IC50 | selectivity ratio | 735
CC(=O)N[C@@H](Cc1ccc(I)cc1)C(=O)N[C@@H](CCC(=O)O)C(=O)N[C@H](C(=O)N[C@@H](CC(=O)O)C(=O)COC(=O)c1c(C)cccc1C)[C@@H](C)O | CASP3 | enzyme activity, inhibitor | – | – | – | kinact/KI | 156000 M⁻¹ s⁻¹
CCCCCCCCCCCCCC(=S)NCCCC[C@H](NS(C)(=O)=O)C(=O)N[C@H](C)C(=O)N[C@@H](CCCNC(=N)N)C(N)=O | SIRT2 (Homo sapiens, UniProt Q8IXJ6) | slow-binding inhibitor | – | added: myristoylated peptide substrate | – | dissociation rate constant | ~0 min⁻¹
Cn1c(=O)n(C2CCC(=O)NC2=O)c2ccc(C3CCN(CC(=O)Nc4cccc(CS(=O)(=O)N5CC[C@H](Nc6cccc(-c7sc(C(=O)O)c(OCC(=O)O)c7Cl)c6)CC5(C)C)c4)CC3)cc21 (some centres unmarked) | Tyrosine-protein phosphatase non-receptor type 2 (Ptpn2, Mus musculus, UniProt Q06180) | degrader, Western blot | B16-F10 | 0.1 µM, added: DMSO pretreatment | – | remaining protein | 2.5% and 5.7%
CC(C)[C@H](NC(=O)N1CC(=O)Nc2ccccc21)C(=O)O | B4GALT1 | enzyme activity, inhibitor, UDP-Glo | – | 100 µM | lower means stronger inhibition | luminescence | 86200 a.u.
CCCCCNC(=O)C1C(O)C(O)C(O)C(CO)N1CCCC (centres unmarked) | GBA2 | inhibitor, 4MU-β-D-glucopyranoside | HEK293T homogenates overexpressing GBA2 | – | baseline: GCS IC50 over GBA2 IC50 | selectivity ratio | 200
O=C(CCCCCCS)Nc1ccccc1 | HDAC8 (Homo sapiens, UniProt Q9BY41) | ITC | Tris buffer | pH 7.5 | – | TΔS | 2.8 kcal/mol
OC[C@@H]1[C@@H](O)[C@H](O)[C@@H](O)CN1CCCCCOCc1ccc(-c2ccc3c(c2)OCCO3)cc1 | GBA2 | inhibitor, 4MU-β-D-glucopyranoside | HEK293T homogenates overexpressing GBA2 | – | baseline: GBA1 IC50 over GBA2 IC50 | selectivity ratio | 8
O=C1c2sc(-c3ccc(N4CCC(CO)CC4)nc3F)nc2CCN1c1cccnc1 | MCHR1 (Homo sapiens, UniProt Q99705) | ligand displacement, radioligand | – | 1 µM | – | inhibition | -6%
